Measured values of several laboratories.
“And” joins repeats or separate records; there may be more than shown.
B1: CSRP2, human; sequence looked up; chain MPVWGGGNKCGACGRTVYHAEEVQCDGRSFHRCCFLCMVCRKNLDSTTVAIHDEEIYCKSCYGKKYGPKGYGYGQGAGTLNMDRGERLGIKPESVQPHRPTTNPNTSKFAQKYGGAEKCSRCGDSVYAAEKIIGAGKPWHKNCFRCAKCGKSLESTTLTEKEGEIYCKGCYAKNFGPKGFGYGQGAGALVHAQ
B2: human TGM3; sequence looked up; chain 1 AALGVQSINWQTAFNRQAHHTDKFSSQELILRRGQNFQVLMIMNKGLGSNERLEFIVSTGPYPSESAMTKAVFPLSNGSSGGWSAVLQASNGNTLTISISSPASAPIGRYTMALQIFSQGGISSVKLGTFILLFNPWLNVDSVFMGNHAEREEYVQEDAGIIFVGSTNRIGMIGWNFGQFEEDILSICLSILDRSLNFRRDAATDVASRNDPKYVGRVLSAMINSNDDNGVLAGNWSGTYTGGRDPRSWNGSVEILKNWKKSGFSPVRYGQCWVFAGTLNTALRSLGIPSRVITNFNSAHDTDRNLSVDVYYDPMGNPLDKGSDSVWNFHVWNEGWFVRSDLGPSYGGWQVLDATPQERSQGVFQCGPASVIGVREGDVQLNFDMPFIFAEVNADRITWLYDNTTGKQWKNSVNSHTIGRYISTKAVGSNARMDVTDKYKYPEGSDQERQVFQKALGKLKPNTPFA; chain 2 ATSSMGLETEEQEPSIIGKLKVAGMLAVGKEVNLVLLLKNLSRDTKTVTVNMTAWTIIYNGTLVHEVWKDSATMSLDPEEEAEHPIKISYAQYEKYLKSDNMIRITAVCKVPDESEVVVERDIILDNPTLTLEVLNEARVRKPVNVQMLFSNPLDEPVRDCVLMVEGSGLLLGNLKIDVPTLGPKEGSRVRFDILPSRSGTKQLLADFSCNKFPAIKAMLSIDVAE

Molecule | target or system | assay | system | setting | scale | measurement | result
B1 (CSRP2, human) | CYB5R4 knockout human cells | PP4 interaction, 3xFLAG-PP4C IP-MS | – | concentration not given | baseline: CYB5R4 KO over parental | log2 fold change | 0.4
colistin A | Pseudomonas aeruginosa | broth microdilution | ATCC 27853 | added: Survanta 10% (2.5 mg/mL phospholipid) | baseline: without surfactant | MIC fold increase | 4 fold
GCCATGCTTT (PNA, CPP-conjugated) | Salmonella enterica serovar Typhimurium | – | peptide, SL1344 | 10 µM, 8 h | baseline: untreated | log reduction | 4.77 log CFU/mL
Ivermectin | Trypanosoma cruzi | – | Vero, Tulahuen, β-galactosidase-expressing | – | baseline: Vero TC50 over T. cruzi IC50 | selectivity index | 1.4
CTCATACTCT | Salmonella enterica serovar Typhimurium | RNA-seq, refers to: target gene SL1344_1133 | peptide, SL1344 | 5 µM, 15 min | baseline: water control | log2 fold change | -2.09
DAPT | Streptococcus pneumoniae | – | ATCC 49619, wild type, CAMHB, lysed horse blood | – | – | MIC | 12.5 µg/mL
colistin | Escherichia coli | broth microdilution | clinical isolate RKI-No_521/16 | – | – | MIC | 8 µg/mL
polymyxin B1 | Pseudomonas aeruginosa | broth microdilution | ATCC 27853 | added: Survanta 10% (2.5 mg/mL phospholipid) | baseline: without surfactant | MIC fold increase | 8 fold
colistin | Pseudomonas aeruginosa | – | PA1804 PER-producing isolate | – | – | MIC | 2 µg/mL
TCACTATCTC | Salmonella enterica serovar Typhimurium | RNA-seq, refers to: mpl (SL1344_4349) | peptide, SL1344 | 5 µM, 15 min | baseline: water control | log2 fold change | -1.41
Polymyxin B | Pseudomonas aeruginosa | – | ATCC 27853 | 31.2 µg per disc, 24 h, 37 °C | – | inhibition zone diameter | 8 mm
GACATACTCT | Salmonella enterica serovar Typhimurium | RNA-seq, refers to: nuoC (SL1344_2295) | peptide, SL1344 | 5 µM, 15 min | baseline: water control | log2 fold change | -2.58
Nisin | Bacillus subtilis | bacterial cytological profiling | ATCC 6633 | concentration not given | – | cell length | 1.96 µm and 1.87 µm and 1.97 µm
gentamicin sulfate | Pseudomonas aeruginosa | – | ATCC 27853 | 18 h, 37 °C, added: LED light 1.57 mW, 10 min | – | MIC | 0.5 µM
CTCAATCTCT | Salmonella enterica serovar Typhimurium | RNA-seq, refers to: nhaA (SL1344_0040) | peptide, SL1344 | 5 µM, 15 min | baseline: water control | log2 fold change | -1.27
Phosphate | Saccharomyces cerevisiae | cell growth, OD600 after 16 h | Pho84 strain | added: 93 mM NaH2PO4 | – | EC50 | < 4 mM
TCATCCGCTG (PNA, CPP-conjugated) | Salmonella enterica serovar Typhimurium | – | peptide, SL1344 | 10 µM, 8 h | baseline: initial count | log reduction | 3.2 log CFU/mL
CTCTAACTCT | Salmonella enterica serovar Typhimurium | RNA-seq, refers to: mig-14 (SL1344_2765) | peptide, SL1344 | 5 µM, 15 min | baseline: water control | log2 fold change | 1.99
milbemycin oxime | Saccharomyces cerevisiae | cell growth | Pdr5 deleted, Cdr1 overexpressed | 2^-6.966 µg/mL, added: fluconazole 1 µg/mL | – | OD600 | 1.01 and 1.03 and 1.02
B2 (human TGM3) | PP6C (human) | co-immunoprecipitation, IP-MS | CYB5R4 knockout cells | concentration not given | baseline: CYB5R4 knockout over parental | log2 fold change | 0.63
Polymyxin B | Staphylococcus aureus | DiSC3(5) fluorescence | – | concentration not given, 51 min | higher = more depolarisation | membrane depolarisation | 729 a.u. and 532 a.u. and 578 a.u.
CTTTCATGCG (PNA, CPP-conjugated) | Salmonella enterica serovar Typhimurium | refers to: CFU | peptide, SL1344, Caenorhabditis elegans infection model, worms | 2 × MIC, 24 h | baseline: untreated | bacterial load reduction | 73.3%
CTCATAGACT | Salmonella enterica serovar Typhimurium | RNA-seq, refers to: cfa (SL1344_1359) | peptide, SL1344 | 5 µM, 15 min | baseline: water control | log2 fold change | -2.26

Some of these lines once more:
Molecule | target or system | assay | system | setting | scale | measurement | result
colistin | Escherichia coli | broth microdilution | clinical isolate RKI-No_521/16 | – | – | MIC | 8 µg/mL
CTCTAACTCT | Salmonella enterica serovar Typhimurium | RNA-seq, refers to: mig-14 (SL1344_2765) | peptide, SL1344 | 5 µM, 15 min | baseline: water control | log2 fold change | 1.99
GCCATGCTTT (PNA, CPP-conjugated) | Salmonella enterica serovar Typhimurium | – | peptide, SL1344 | 10 µM, 8 h | baseline: untreated | log reduction | 4.77 log CFU/mL
